Assay results pooled from the literature.
Numbered parts are unrelated; each lists some results of a single study.

Block 1
Target: Transcription factor Sp1 (SP1, Homo sapiens, UniProt P08047, residues 1-785, full length assumed)
UniProt P08047, sequence (whole entry, looked up): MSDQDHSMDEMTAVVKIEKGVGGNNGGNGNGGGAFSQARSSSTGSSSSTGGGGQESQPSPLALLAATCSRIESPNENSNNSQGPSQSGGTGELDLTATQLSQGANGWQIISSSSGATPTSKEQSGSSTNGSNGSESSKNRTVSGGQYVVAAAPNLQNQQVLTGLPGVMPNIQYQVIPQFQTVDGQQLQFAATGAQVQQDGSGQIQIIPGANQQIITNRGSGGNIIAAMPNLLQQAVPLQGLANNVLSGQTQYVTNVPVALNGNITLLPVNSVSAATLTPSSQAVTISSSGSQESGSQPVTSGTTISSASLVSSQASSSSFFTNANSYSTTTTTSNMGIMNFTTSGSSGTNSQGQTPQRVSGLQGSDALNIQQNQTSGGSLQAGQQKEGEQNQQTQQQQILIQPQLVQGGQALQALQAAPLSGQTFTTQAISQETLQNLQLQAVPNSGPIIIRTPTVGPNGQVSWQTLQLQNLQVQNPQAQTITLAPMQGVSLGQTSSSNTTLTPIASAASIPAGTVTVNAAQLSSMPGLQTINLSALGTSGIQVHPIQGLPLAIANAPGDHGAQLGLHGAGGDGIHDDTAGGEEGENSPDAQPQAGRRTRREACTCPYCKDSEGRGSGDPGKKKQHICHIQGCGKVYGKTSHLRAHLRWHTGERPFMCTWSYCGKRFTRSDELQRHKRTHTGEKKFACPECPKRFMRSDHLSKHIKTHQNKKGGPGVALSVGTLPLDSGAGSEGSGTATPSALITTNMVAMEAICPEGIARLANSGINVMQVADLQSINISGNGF
Technique: protein-binding microarray
Molecule type: double-stranded DNA, one strand shown
Matrix: in vitro
Concentration: not given
Notes: k-mer, scored over probes, only values ≥0.25
Direction: higher = stronger binding
Sequence	E-score
ATAATACA	0.295
ATGGGGCG	0.434
CCCCCTGC	0.302
CCCACCCC	0.485

Block 2
Target: Histone acetyltransferase KAT6A, both winged helices, GST fusion (KAT6A, Homo sapiens, UniProt Q92794, residues 1-181)
Technique: protein binding microarray
Molecule type: double-stranded DNA, one strand shown
Matrix: in vitro
Concentration: not given
Notes: 8-mer, flanks averaged, mean of 2 arrays, mostly near background
Reference: not given
Direction: higher = stronger binding
Residues (chain): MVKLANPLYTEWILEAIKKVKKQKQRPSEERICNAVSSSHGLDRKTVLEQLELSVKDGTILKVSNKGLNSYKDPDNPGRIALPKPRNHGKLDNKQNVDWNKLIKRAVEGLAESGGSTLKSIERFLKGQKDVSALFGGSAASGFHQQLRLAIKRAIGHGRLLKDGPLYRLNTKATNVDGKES
Sequence	E-score
GATACAAC	0.0817
AGTGTCAA	-0.0722
CACCACAC	-0.0343
CCCTCCAC	-0.211
ATTTACCA	-0.141

Block 3
Target: Prothrombin, mature alpha-thrombin (F2, Homo sapiens, UniProt P00734)
Technique: aptamer microarray, sandwich
Molecule type: DNA with 2'F-ANA
Matrix: in vitro
Concentration: 200 nM
Notes: whole 15-mer aptamer, many near background
With: Cy3 exosite-II aptamer, 400 nM
Direction: higher = stronger binding
Sequence	mean fluorescence intensity [a.u.]
GGTTGGTGTGGTTGG (2'F-ANA at 5 8 9 11 12)	160
GGTTGGTGTGGTTGG (2'F-ANA at 1 2 3 4 6 9 10 12 14 15)	50.6
GGTTGGTGTGGTTGG (2'F-ANA at 5 6 7 13 14 15)	120
GGTTGGTGTGGTTGG (2'F-ANA at 2 3 7 9 11 12 14 15)	400

Further values, each from its own experiment
Molecule	target	test	test system	setting	how to read	measurement	value
PhoQ, residues 284 288 289 292 302 303 GNNTDL	PhoP, residues 12 14 15 18 19 NNFVT (Escherichia coli, UniProt P23836)	Sort-seq, measured: YFP reporter	E. coli	PhoQ-PhoP variant library, with: 10 µM Mg2+	reference: high Mg2+ state, higher = stronger signaling	fold induction	1.81

Excerpt of the above (block 2):
Sequence	E-score
GATACAAC	0.0817
